# Literature values as cited in several papers.
# Each line is one published result; not all experiments were run side by side. Numbers after ± are the reported error.
# Chain of UniProt P52895 (whole entry, looked up): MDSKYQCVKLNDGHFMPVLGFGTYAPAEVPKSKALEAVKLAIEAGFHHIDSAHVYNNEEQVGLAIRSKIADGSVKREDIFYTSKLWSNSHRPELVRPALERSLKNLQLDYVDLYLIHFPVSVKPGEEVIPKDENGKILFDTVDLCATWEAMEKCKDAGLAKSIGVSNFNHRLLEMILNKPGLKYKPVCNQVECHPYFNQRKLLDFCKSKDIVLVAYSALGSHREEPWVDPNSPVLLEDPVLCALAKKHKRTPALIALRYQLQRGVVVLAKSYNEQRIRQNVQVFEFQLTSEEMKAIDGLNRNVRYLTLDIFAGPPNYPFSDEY
# Chain of UniProt P00811 (whole entry, looked up): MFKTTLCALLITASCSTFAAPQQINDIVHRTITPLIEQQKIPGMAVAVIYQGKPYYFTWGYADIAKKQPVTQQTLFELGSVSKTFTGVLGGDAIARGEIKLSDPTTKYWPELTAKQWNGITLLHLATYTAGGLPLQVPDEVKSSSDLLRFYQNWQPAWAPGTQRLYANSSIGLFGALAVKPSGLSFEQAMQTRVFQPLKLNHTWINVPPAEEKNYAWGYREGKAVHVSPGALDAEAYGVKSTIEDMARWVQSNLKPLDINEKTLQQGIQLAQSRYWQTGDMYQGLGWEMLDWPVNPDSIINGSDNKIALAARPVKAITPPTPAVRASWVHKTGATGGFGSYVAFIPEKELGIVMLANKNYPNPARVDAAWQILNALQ
Structure (SMILES),target or system,assay,test system,setting,how to read,measurement,result
O=C(O)c1sccc1S(=O)(=O)Nc1cccnc1,"Beta-lactamase (ampC, Escherichia coli K-12, UniProt P00811)",inhibitor,,,,Ki,120 µM
CC(=O)N(N(CCCl)S(C)(=O)=O)S(C)(=O)=O,,,"mouse, L1210 leukemia",single dose,,optimal therapeutic dose,40 mg/kg
C[C@]12CCC(=O)C[C@@H]1CC[C@@H]1[C@@H]2CC[C@]2(C)[C@@H](O)CC[C@@H]12,"AKR1C2 (Homo sapiens, UniProt P52895)",substrate,,,,Km,2.9 µM
CS(=O)(=O)NN(CCCl)S(C)(=O)=O,L1210,,,,baseline: MGMT-transfected over wild type,IC90 ratio,~22 fold
O=C(Cc1cccs1)N[C@@H]1C(=O)N2C(C(=O)O)=C(/C=C/c3ccc([N+](=O)[O-])cc3[N+](=O)[O-])CS[C@H]12,NDM-1 wild type,"hydrolysis, substrate",,,,Km,1.3 ± 0.2 µM
OCCN1CCN(CCC=C2c3ccccc3Sc3ccc(C(F)(F)F)cc32)CC1,MCF7,"microarray, item: VEGFA mRNA",,concentration not given,baseline: DMSO,log2 fold change,1.28
CC[C@H](C)CCCCC(=O)N[C@@H](CCN)C(=O)N[C@H](C(=O)N[C@@H](CCN)C(=O)N[C@H]1CCNC(=O)[C@H]([C@@H](C)O)NC(=O)[C@H](CCN)NC(=O)[C@H](CCN)NC(=O)[C@H](CC(C)C)NC(=O)[C@@H](Cc2ccccc2)NC(=O)[C@H](CCN)NC1=O)[C@@H](C)O,,,"human, mild renal insufficiency",single dose,baseline: healthy subjects,pharmacokinetic profile,no effect
Nc1ccn([C@@H]2O[C@H](COP(=O)(O)OP(=O)(O)OP(O)(O)=S)[C@@H](O)[C@H]2O)c(=O)n1,"Spo0J, Bacillus subtilis",binding,,,,Kd,10.3 ± 1.2 µM

# Some of these lines once more:
Structure (SMILES),target or system,assay,test system,setting,how to read,measurement,result
OCCN1CCN(CCC=C2c3ccccc3Sc3ccc(C(F)(F)F)cc32)CC1,MCF7,"microarray, item: VEGFA mRNA",,concentration not given,baseline: DMSO,log2 fold change,1.28
